Results of several laboratories.
Lines come from different studies, so protocols differ. Several values in a cell are separate wells, animals, samples, runs or records. ± marks the error that the study gave.

`CC1(C)OB(/C=C/COCOCC(=O)OCc2ccccc2)OC1(C)C` gave a yield of 98% (oxidative cleavage releasing alcohol, 1H NMR; pH 7.4, together with: H2O2).
For `CC(C)(C)c1ccc(C(O)CCCN2CCC(C(O)(c3ccccc3)c3ccccc3)CC2)cc1` (centres unmarked), the heart rate was 189 ± 0.3 beats/min (male Hartley guinea pigs, anaesthetized; intravenous, 1 mg/kg over 10 min, after infusion).
Under “peripheral volume of distribution (V2)”, `Cc1cn(-c2cc(NC(=O)c3ccc(C)c(Nc4nccc(-c5cccnc5)n4)c3)cc(C(F)(F)F)c2)cn1` is recorded as 223 L (population PK model, typical value; human, both sexes, plasma; oral, dose not given).
For `N=C(N)NC(=N)NCCCCCCCCCC[P+](c1ccc(C(F)(F)F)cc1)(c1ccc(C(F)(F)F)cc1)c1ccc(C(F)(F)F)cc1.[Br-]`, detection read “not detected” (19F NMR; tumour-engrafted mice, blood and liver; intratumoral, 1 mg, 2 h).
`CNC(=O)c1ccc(-c2cnc3ncc(Cc4ccc5ncccc5c4)n3n2)cc1F` — result for “Anaemia dose reduction/interruption”: 1% (Japanese patients; oral, 400 mg, grade 3/4).
The median Tmax of `COc1ncc(-c2nc3c(n2C(C)C)[C@H](c2ccc(Cl)cc2)N(c2cc(Cl)cn(C)c2=O)C3=O)c(OC)n1` is reported as 4.1 h (human patients, plasma; oral, 15 mg, low-dose arm, cycle 2 day 1).
`N[C@@H]1c2ccccc2OC12CCN(c1cnc3c(N4CCCc5ncccc54)n[nH]c3n1)CC2` gave an AUC(0-tau) of 8770 ng·h/mL (advanced metastatic solid tumour patients, plasma; oral, 50 mg once daily, cycle 1 day 15, geometric mean).
Under “nucleoside remaining fraction”, `CO[C@@H]1[C@H](O)[C@@H](CO)O[C@H]1n1c([N+](=O)[O-])nc2c(=O)[nH]c(N)nc21` is recorded as 0.591 (depurination, RP-HPLC; citrate-phosphate buffer 0.5 mM; 480 min, pH 2, 37 °C).
Under “subjects with adverse event”, `C[C@H]1O[C@@H](O[C@H]2[C@@H](O)C[C@H](O[C@H]3[C@@H](O)C[C@H](O[C@H]4CC[C@@]5(C)[C@H](CC[C@@H]6[C@@H]5C[C@@H](O)[C@]5(C)[C@@H](C7=CC(=O)OC7)CC[C@]65O)C4)O[C@@H]3C)O[C@@H]2C)C[C@H](O)[C@@H]1O` is recorded as 0% (item: toothache; healthy men; oral, dose not given, 8 days, treatment-emergent, crossover trial).
`CNC(=O)c1ccc(-c2cnc3ncc(Cc4ccc5ncccc5c4)n3n2)cc1F` — result for “peripheral edema incidence (all grades)”: 28% (CTCAE v4.0, any causality; human cancer patients; oral, 600 mg twice daily, expansion, other tumours, RP2D).
`CC[C@H](C)[C@H](NC(=O)[C@H](Cc1ccccc1)NC(=O)[C@H](CCC(=O)O)NC(=O)[C@H](CCCCNC(=O)COCCOCCNC(=O)COCCOCCNC(=O)CC[C@H](NC(=O)CCCCCCCCCCCCCCCCC(=O)O)C(=O)O)NC(=O)[C@H](C)NC(=O)[C@H](C)NC(=O)[C@H](CCC(N)=O)NC(=O)CNC(=O)[C@H](CCC(=O)O)NC(=O)[C@H](CC(C)C)NC(=O)[C@H](Cc1ccc(O)cc1)NC(=O)[C@H](CO)NC(=O)[C@H](CO)NC(=O)[C@@H](NC(=O)[C@H](CC(=O)O)NC(=O)[C@H](CO)NC(=O)[C@@H](NC(=O)[C@H](Cc1ccccc1)NC(=O)[C@@H](NC(=O)CNC(=O)[C@H](CCC(=O)O)NC(=O)C(C)(C)NC(=O)[C@@H](N)Cc1cnc[nH]1)[C@@H](C)O)[C@@H](C)O)C(C)C)C(=O)N[C@@H](C)C(=O)N[C@@H](Cc1c[nH]c2ccccc12)C(=O)N[C@@H](CC(C)C)C(=O)N[C@H](C(=O)N[C@@H](CCCNC(=N)N)C(=O)NCC(=O)N[C@@H](CCCNC(=N)N)C(=O)NCC(=O)O)C(C)C` — result for “heart rate change”: 0 beats/min (hypoglycaemic clamp; type 2 diabetes patients; dose not given, nadir plasma glucose 5.5 mmol/L).
Under “AUC(0-t) (geometric mean)”, `Cc1cc(Nc2ncnc3ccc(NC4=NC(C)(CO)CO4)cc23)ccc1Oc1ccn2ncnc2c1` (centres unmarked) is recorded as 414 ng·h/mL (human, plasma; oral, 300 mg tucatinib single dose, day 1, tucatinib alone).
The organ weight of `CCN(c1cc(-c2ccc(CN3CCOCC3)cc2)cc(C(=O)NCc2c(C)cc(C)[nH]c2=O)c1C)C1CCOCC1` is reported as 112 mg (mouse xenograft, heart; dose not given).
The SUV of `[18F]c1ccc(-c2ccc3c(c2)[nH]c2ccncc23)cn1` is reported as 1.6 ± 0.404 (ex vivo biodistribution; APP/PS1 mouse, AD model, stomach; intravenous, 30 min).
With `CN(C(=O)n1cnc(-c2ccc[n+]([O-])c2)c1)[C@H]1CC[C@H](O)CC1` the tissue concentration was 13.4 ± 0.3 ng/g (rat, hippocampus; oral, 10 mg/kg daily for 5 days, 72 h).
Under “absorption rate constant”, `CN[C@H](CC(C)C)C(=O)N[C@H]1C(=O)N[C@@H](CC(N)=O)C(=O)N[C@H]2C(=O)N[C@H]3C(=O)N[C@H](C(=O)N[C@H](C(=O)O)c4cc(O)cc(O)c4-c4cc3ccc4O)[C@H](O)c3ccc(c(Cl)c3)Oc3cc2cc(c3O[C@@H]2O[C@H](CO)[C@@H](O)[C@H](O)[C@H]2O[C@H]2C[C@](C)(N)[C@H](O)[C@H](C)O2)Oc2ccc(cc2Cl)[C@H]1O` is recorded as 2.14 h⁻¹ (electrochemical aptamer sensor; male C57BL/6J mouse, cortex; intravenous bolus, 35 mg/kg).
With `Cc1ccnc([18F])c1-c1cccc(N2C[C@H](N3CCN(C(=O)c4nccs4)CC3)CC2=O)c1` the ktrans was 0.0073 min⁻¹ (human, brain pons; intravenous).
For `CN(C(=O)n1cnc(-c2cccnc2)c1)[C@H]1CC[C@H](O)CC1`, the concentration was 17.2 ± 0.9 ng/g (Wistar rat, midbrain; oral, 10 mg/kg/day of BIA 10-2474, 48 h, repeated 5 days).
`C=CCN1CC(=O)N2[C@@H](Cc3ccc(O)cc3F)C(=O)N(Cc3cccc(N4CC(N5CCN(CC)CC5)C4)n3)C[C@@H]2N1C(=O)NCc1ccccc1`: “treatment-related adverse events” 0% (item: Malaise; advanced solid tumour patients; oral, 120 mg twice daily, expansion part, grade ≥3).
`CCN1/C(=C/C(C)=O)Sc2ccc(F)cc21` — result for “heart rate change”: 134 ± 9.1% (cynomolgus monkey; oral, 100 mg/kg, 0.5 h post-dose; baseline: pre-dose).
`C[C@@H](N)C1CCN(S(=O)(=O)c2cccc3cnccc23)CC1`: “participants with mental impairment” 0% (healthy volunteers; 25 mg, fasted).
`CCc1cc(C(=O)NC)c2nccc(N3CCc4c(cc(Cn5ccnc5)cc4-c4cn(C)nc4C(F)(F)F)C3=O)c2c1`: “blood TBA change” 164% (Sprague Dawley rats; oral, 100 mg/kg twice daily, 7 days; baseline: vehicle).
For `CCCCOC(=O)N1CCN(C(=O)[C@H](CP(=O)(O)O)NC(=O)c2cc(N3CC[C@H](OC)C3)nc(-c3ccccc3)n2)CC1`, “change from baseline” read -0.01 ± 0.08 INR (item: prothrombin time; human, plasma; 16 mg, 24 h post-dose).
For `O=C1CC[C@H](N2Cc3cc(N4CCN(CC5CCN(c6ccc([C@@H]7c8ccc(O)cc8CC[C@@H]7c7ccccc7)cc6)CC5)CC4)ccc3C2=O)C(=O)N1`, the recovery was 100% (rapid equilibrium dialysis; human plasma; 2.5 µM, 6 h).
For `CO[C@H]1C[C@@H]2CC[C@@H](C)[C@@](O)(O2)C(=O)C(=O)N2CCCC[C@H]2C(=O)O[C@H]([C@H](C)C[C@@H]2CC[C@@H](OC(=O)NCCOCCOCCOCCOCCOCCOCCOCCOCCC(=O)N3CCc4cc(Cn5nc(-c6ccc7oc(N)nc7c6)c6c(N)ncnc65)ccc4C3)[C@H](OC)C2)C[C@@H](O)[C@H](C)/C=C(\C)[C@@H](O)[C@@H](OC)C(=O)[C@H](C)C[C@H](C)/C=C/C=C/C=C/1C`, the AUC(0-t) was 155 ng·h/mL (human, plasma; intravenous, 3 mg, cycle 1 day 15, arithmetic mean).
`NC1(C(=O)N[C@@H](CCO)c2ccc(Cl)cc2)CCN(c2nc[nH]c3nccc2-3)CC1` — result for “incidence of Dysgeusia”: 0% (metastatic CRPC patients; 320 mg b.i.d., grade 3 to 4, treatment-related, together with: enzalutamide 160 mg daily).
Under CSF concentration, `O=C(O)Cc1cccc(O)c1` is recorded as “not detected” (human CSF; concentration not given, mean).
`CN[C@@H]1COc2c(S(=O)(=O)NC(=O)Nc3c4c(cc5c3CCC5)CCC4)cnn2C1` — result for “predose plasma concentration”: 5220 ng/mL (human, plasma; oral, 900 mg twice daily, D8).
For `Cc1ccc([C@@H]2O[C@H](CO)[C@@H](O)[C@H](O)[C@H]2O)cc1Cc1ccc(-c2ccc(F)cc2)s1`, “urinary calcium excretion change” read 6.3 mg (Japanese type 2 diabetes patients; 25 mg, day 18, 24 h urine collection; baseline: baseline).
The Cmax of `CCOc1c([C@H](C)n2nc(C)c3c(N)ncnc32)cc(Cl)c(F)c1[C@@H]1CNC(=O)C1` is reported as 2260 nM (human Hodgkin lymphoma patients; oral, 30 mg, day 15).
The KOC of `CC(C)C(=O)O[C@H]1[C@H](C)OC(=O)[C@@H]1Cc1ccccc1` is reported as 118 mL/g (FOCUS PEARL groundwater modelling; soil; geometric mean input).
For `O=C1C[C@@H](c2ccc(O[C@@H]3O[C@H](C(=O)O)[C@@H](O)[C@H](O)[C@H]3O)cc2)Oc2cc(O)cc(O)c21`, CSF concentration read “not detected” (human CSF; concentration not given, mean).
For `CCc1c(-c2ccccc2)c(-c2ccccc2)nn1-c1ccccc1-c1cccc(OCC(=O)O)c1`, the tissue concentration was 3010 ng/g and 4470 ng/g (Sprague-Dawley rat, -Kidney; oral, 10 mg/kg, 1 h).
`O=C1NCCc2nc(OCc3cccc(F)c3)ccc21` — result for “rigid stance score”: 0 (modified Irwin test; Sprague-Dawley rat, male; oral, 100 mg/kg, 1 h; higher = stronger effect).
`CC/C(=C(\c1ccccc1)c1ccc(OCCN(C)C)cc1)c1ccccc1` gave a heart rate of 237 ± 0.4 beats/min (male Hartley guinea pigs, anaesthetized; intravenous, 3 mg/kg group, baseline before infusion).
`N#Cc1ccc2c(c1)[C@H]1CCCN(C(=O)c3ccc4[nH]cnc4c3)[C@H]1C2`: “cortisol level change” -148 nmol/L (human; 10 mg, day 15; baseline: baseline).
The body weight of `O=C(O)CSc1nnc(Br)n1-c1ccc(C2CC2)c2ccccc12` is reported as 35.2 g and 38.2 g and 33.7 g and 38.7 g and 42.4 g and 39.1 g (KM mouse, chronic hyperuricaemia model; dose not given, day 27).
For `O=C(CCCN1CC=C(n2c(=O)[nH]c3ccccc32)CC1)c1ccc(F)cc1`, the heart rate was 200 ± 0.6 beats/min (male Hartley guinea pigs, anaesthetized; intravenous, 0.3 mg/kg over 10 min, after infusion).
`C[C@@H](Nc1cc(F)cc(F)c1)c1cc(C(=O)N(C)C)cc2c(=O)cc(N3CCOCC3)oc12`: “treatment-related serious adverse events” 5% (item: aspartate aminotransferase increased; patients with advanced solid tumours; oral, dose not given, dose expansion phase I).
For `Cl.[2H]C([2H])([2H])CC(=O)c1cnc(NC(=O)C2CC2)cc1Nc1cccc(-c2ncn(C([2H])([2H])[2H])n2)c1OC`, the half-life was 9.65 h (geometric mean; human; oral, 10 mg once daily, day 7, fasted, liquid, multiple dose).
With `COc1ccc2nc([S@@+]([O-])Cc3ncc(C)c(OC)c3C)[nH]c2c1` the AUC(0-8 h) was 1.75 µM·h (human male, dried plasma spots; oral, 5 mg racemic omeprazole, together with: fluvoxamine and voriconazole).
`COc1ccc([C@@H](O)c2cc(-c3ncnc4cc(N5CCOCC5)ccc34)c(F)cc2Cl)nn1` — result for “lymphopenia TEAE incidence”: 33% (locally advanced rectal cancer patients; 150 mg, together with: capecitabine and radiotherapy).
Under “volume of distribution at steady state”, `NCc1ccc(-c2nn(Cc3ccccc3)c3ccccc23)o1` is recorded as 4.01 L/kg (male CD1 mouse, plasma; intravenous, 5 mg/kg).
Under “trough plasma concentration”, `CCC(C)n1ncn(-c2ccc(N3CCN(c4ccc(OCC5COC(Cn6cncn6)(c6ccc(Cl)cc6Cl)O5)cc4)CC3)cc2)c1=O` (centres unmarked) is recorded as 72.2 ng/mL (human, plasma; oral, dose not given, day 12 predose, mean).

Some of these lines once more:
For `CC(C)(C)c1ccc(C(O)CCCN2CCC(C(O)(c3ccccc3)c3ccccc3)CC2)cc1` (centres unmarked), the heart rate was 189 ± 0.3 beats/min (male Hartley guinea pigs, anaesthetized; intravenous, 1 mg/kg over 10 min, after infusion).
The body weight of `O=C(O)CSc1nnc(Br)n1-c1ccc(C2CC2)c2ccccc12` is reported as 35.2 g and 38.2 g and 33.7 g and 38.7 g and 42.4 g and 39.1 g (KM mouse, chronic hyperuricaemia model; dose not given, day 27).
For `O=C1CC[C@H](N2Cc3cc(N4CCN(CC5CCN(c6ccc([C@@H]7c8ccc(O)cc8CC[C@@H]7c7ccccc7)cc6)CC5)CC4)ccc3C2=O)C(=O)N1`, the recovery was 100% (rapid equilibrium dialysis; human plasma; 2.5 µM, 6 h).
The KOC of `CC(C)C(=O)O[C@H]1[C@H](C)OC(=O)[C@@H]1Cc1ccccc1` is reported as 118 mL/g (FOCUS PEARL groundwater modelling; soil; geometric mean input).
For `CO[C@H]1C[C@@H]2CC[C@@H](C)[C@@](O)(O2)C(=O)C(=O)N2CCCC[C@H]2C(=O)O[C@H]([C@H](C)C[C@@H]2CC[C@@H](OC(=O)NCCOCCOCCOCCOCCOCCOCCOCCOCCC(=O)N3CCc4cc(Cn5nc(-c6ccc7oc(N)nc7c6)c6c(N)ncnc65)ccc4C3)[C@H](OC)C2)C[C@@H](O)[C@H](C)/C=C(\C)[C@@H](O)[C@@H](OC)C(=O)[C@H](C)C[C@H](C)/C=C/C=C/C=C/1C`, the AUC(0-t) was 155 ng·h/mL (human, plasma; intravenous, 3 mg, cycle 1 day 15, arithmetic mean).
